Published values of several laboratories.
Each line is one published result; not all experiments were run side by side.
EGFR: Epidermal growth factor receptor (EGFR, Homo sapiens, UniProt P00533)
EGFR L858R: Epidermal growth factor receptor (EGFR, Homo sapiens, UniProt P00533, L858R)

`O=C1NC(=O)c2c1c1cc(F)c[n+]3c1c1c2c2cc(O)ccc2[n]1[Ru-4]312([N]=C=S)[S+]3CC[S+]1CC[S+]2CC3` (centres unmarked) has a remaining activity of 108% (Epidermal growth factor receptor (EGFR, Homo sapiens, UniProt P00533, L861Q); enzyme activity; 100 nM, human enzyme, added: 10 µM ATP; relative to: untreated).
The inhibition of `CN[C@@H]1[C@H](O)[C@H](NC)[C@H]2O[C@]3(O)[C@H](O[C@@H]2[C@H]1O)O[C@H](C)C[C@H]3NC(=O)Cc1cc(Cl)ccn1` is reported as 18% (EGFR; 10 µM).
`CCOC(=O)[C@@H]1Cc2c(cc([N+](=O)[O-])cc2[N+](=O)[O-])[C@H](O)[C@]12C(=O)Nc1ccc(Br)cc12` gave a remaining binding of 87% (EGFR; KINOMEscan; 100 nM; relative to: DMSO control).
`C[C@H](NCc1ccc(-c2ccc(C(F)(F)F)cc2)cc1)C(N)=O` gave an inhibition of 29% (EGFR L858R; cell-free assay, competition with immobilised ligand; 1 µM).
With `CS(C)(=O)=Nc1ccc(-c2ccc(-c3nc4cc(O[C@@H]5CO[C@H]6[C@@H]5OC[C@H]6O)[nH]c4cc3F)cc2)cc1` the inhibition was -16% (EGFR L858R; enzyme activity, inhibitor; 10 µM).
`CC(C)[C@H]1NC(=O)C[C@H]2/C=C/CCSSC[C@@H](NC1=O)C(=O)N[C@H](Cc1cccc3ccccc13)C(=O)NCC(=O)O2` gave an inhibition of -10.7% (EGFR; enzyme activity, inhibitor; 10 µM).
With `Nc1ccc(/C=C/C(=O)N2CCc3c(oc4c(-c5ccc(F)cc5)cc(-c5ccc(C(=O)N6CCC(F)(F)CC6)cn5)cc34)C2)cn1` the remaining binding was 78% (EGFR; binding, competition with immobilised ligand; 1 µM).
The inhibition of `O=C(CN1CN(c2ccccc2)C2(CCN(C(=O)c3cnc4[nH]ncc4c3)CC2)C1=O)NCC(F)(F)F` is reported as less than 50% (Epidermal growth factor receptor (EGFR, Homo sapiens, UniProt P00533, T790M); inhibitor; concentration not given).

Some of these lines once more:
`O=C1NC(=O)c2c1c1cc(F)c[n+]3c1c1c2c2cc(O)ccc2[n]1[Ru-4]312([N]=C=S)[S+]3CC[S+]1CC[S+]2CC3` (centres unmarked) has a remaining activity of 108% (Epidermal growth factor receptor (EGFR, Homo sapiens, UniProt P00533, L861Q); enzyme activity; 100 nM, human enzyme, added: 10 µM ATP; relative to: untreated).
